# Experimental data from different studies.
# A part holds a random share of what one study measured. Positions count from the first letter of the parent shown.

# Study 1
# Target: Interferon regulatory factor 5, full length, phosphomimetic (IRF5, Homo sapiens, UniProt Q13568-2, residues 1-514, S451D/S453D/S456D/S462D)
# Technique: protein-binding microarray
# Molecule type: double-stranded DNA, one strand shown
# Matrix: in vitro
# Tested at: 940 nM top
# Setting: 60-bp whole probe
# With: salmon DNA 0.4 mg/ml
# Relative to: random background probes
# Reading: higher = stronger binding
# Shared flanks, not repeated: GCCTAGCAC … GTCTTGATTCGCTTGACGCTGCTG
Sequence,fitted relative affinity [z-score]
TTAGGTTCCGGTTTCGGCTAGTGCTAG,6.6
GACGATTTCGGGACTGGAGAGGTGCTA,-0.232
ATGTATACACACTATAGTGAAGTGCTA,0.236
TGGAACCAGCGAACGAGCGGGTGCTAG,-0.522
TTAGTTCTCAGTCTCGATTAGTGCTAG,4.48
GACGAACTGCGGACTGGAGACGTGCTA,-0.556
GACGGTTTCCTTATCCTGAAGTGCTAG,1.4
TTAGTTTTCAGTATCGATTAGTGCTAG,6.78
TTAGGTTTCCTTAACCTTTAGTGCTAG,1.13
GACGGTATCGGTATCTGGACGTGCTAG,7.82
TTGCCTCACCTCACCTGTCCGTGCTAG,0.373
TTAGGTATCAGTATCGGTTAGTGCTAG,6.72
TTAGGACTGGGGTTTCGGCTAGTGCTA,2.48
TTAGGTTACGACACTGGGTTAGTGCTA,0.117
TCCCCGGAGCTGGACAGAAGGTGCTAG,-0.742
GACGGTAGCGGACTGGGGACGTGCTAG,-0.53
TCATAACTCATTCTCTGACTGTGCTAG,0.669
GACGGACTCGGGACTGGGGACGTGCTA,-0.545
GACGGTATCGGGTTTCGGGATGTGCTA,5.38

# Study 2
# Target: DBP, bZIP domain (human)
# Technique: DHFR protein complementation
# Matrix: yeast
# Setting: single substitutions, most at no-binding floor
# Relative to: wild-type JUN-FOS pair
# Reading: higher = stronger binding
# Starting sequence: JUN, bZIP domain (human); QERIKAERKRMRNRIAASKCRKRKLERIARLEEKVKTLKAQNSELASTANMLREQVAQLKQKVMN; partner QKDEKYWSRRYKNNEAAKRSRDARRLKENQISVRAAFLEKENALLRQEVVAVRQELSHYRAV
Substitution,binding fitness
R53L,-1.49 natural log
K34M,-1.35 natural log
L38S,-1.41 natural log
L38A,-1.52 natural log
K36I,-1.51 natural log
N42T,-1.45 natural log
N42L,-1.41 natural log
I28Q,-1.47 natural log
T48F,-1.29 natural log
K36C,-1.3 natural log
L38R,-1.43 natural log
A49M,-1.52 natural log
Q41R,-1.44 natural log
L38Q,-1.46 natural log
S43T,-1.43 natural log
A46D,-1.49 natural log

# Study 3
# Target: CCNB1, cyclin fold, Cln2 fusion (human)
# Technique: yeast growth competition, sequencing
# Matrix: yeast
# Setting: weak parent motif
# Relative to: not given
# Reading: higher = stronger binding
# Starting sequence: CDKN1B docking peptide (human); PSACRNLFGPVDH
Substitution,normalised enrichment score
PSACRNLFTPVDH [G9T],0.61
PSACQNLFGPVDH [R5Q],-0.0196
ESACRNLFGPVDH [P1E],0.196
PSACRNLFYPVDH [G9Y],0.526
PSACRNLMGPVDH [F8M],0.0351
PKACRNLFGPVDH [S2K],1.14
PSRCRNLFGPVDH [A3R],0.45
PSACRNLFGPVDF [H13F],0.634
PSACRNLFQPVDH [G9Q],0.561
PSACRNLYGPVDH [F8Y],-0.412
PSACRNLPGPVDH [F8P],0.369
SSACRNLFGPVDH [P1S],0.0708
PSACRILFGPVDH [N6I],0.432
KSACRNLFGPVDH [P1K],1.09
PSAQRNLFGPVDH [C4Q],0.000458
PSACRNLFGPVDD [H13D],0.487
PSACRNLFGFVDH [P10F],0.478
PSACRVLFGPVDH [N6V],0.891
PSACRNLFGWVDH [P10W],0.422
PSACRNLDGPVDH [F8D],0.205
PSACRNLFGPNDH [V11N],0.265
PSACRNLFGPVYH [D12Y],0.722
PSACRNDFGPVDH [L7D],0.337
PSACRNLGGPVDH [F8G],-0.48
PSACRNGFGPVDH [L7G],0.325

# Study 4
# Target: ABI1, truncated, D143A, DHFR fusion (Arabidopsis thaliana)
# Technique: DHFR PCA, deep sequencing
# Matrix: yeast
# Setting: methotrexate growth selection, single substitutions
# With: (+)-ABA 200 µM
# Relative to: wild-type fitted maximum
# Reading: higher = stronger binding
# Starting sequence: PYL1, truncated, DHFR fusion (Arabidopsis thaliana); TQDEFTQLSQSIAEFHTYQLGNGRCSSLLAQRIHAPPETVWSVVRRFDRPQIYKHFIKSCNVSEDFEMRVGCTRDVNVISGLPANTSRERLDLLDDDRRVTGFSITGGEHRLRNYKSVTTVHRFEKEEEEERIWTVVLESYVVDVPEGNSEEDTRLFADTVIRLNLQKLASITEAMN; partner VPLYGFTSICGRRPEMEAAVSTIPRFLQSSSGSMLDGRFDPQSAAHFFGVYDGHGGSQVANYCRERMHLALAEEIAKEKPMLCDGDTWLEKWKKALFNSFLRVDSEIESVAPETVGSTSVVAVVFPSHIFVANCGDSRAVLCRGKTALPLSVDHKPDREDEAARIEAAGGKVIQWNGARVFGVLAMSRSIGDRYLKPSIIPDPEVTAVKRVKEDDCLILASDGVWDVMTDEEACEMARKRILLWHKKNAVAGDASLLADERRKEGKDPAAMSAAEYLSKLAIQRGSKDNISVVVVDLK
Substitution,relative binding score [%]
V142W,58.1
Q19T,104
A84G,96.3
S80K,75.6
K116D,-2.58
L28E,-10.4
V100K,24.4
S9P,74.9
E125I,104
I57D,3.93
H122D,82.1
L169N,-2.03
D65F,88.9
T154N,-11.1

# Study 5
# Target: Histone acetyltransferase KAT6A, winged helix 2, GST fusion (KAT6A, Homo sapiens, UniProt Q92794, residues 85-181)
# Technique: protein binding microarray
# Molecule type: double-stranded DNA, one strand shown
# Matrix: in vitro
# Tested at: not given
# Setting: 8-mer, flanks averaged, mean of 2 arrays, mostly near background
# Relative to: not given
# Reading: higher = stronger binding
# Residues (chain): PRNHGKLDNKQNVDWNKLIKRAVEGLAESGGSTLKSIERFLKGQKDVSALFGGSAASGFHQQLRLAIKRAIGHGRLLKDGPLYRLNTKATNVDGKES
Sequence,E-score
TCTCTGAA,-0.0354
CACATTTC,0.0724
GATCCTTA,-0.215
ATTCTTCA,0.0461
AATCACAG,0.0158
ATAAGTAT,-0.056
GTCTCATA,-0.0819
ACTCCCCA,0.0164
TCAACAGA,0.0251
AGAGGAAA,0.221
AAGTCCGT,-0.209
AGTGAGCG,0.0347
GTTAAGGA,0.0673
AATACATG,-0.204
CTGCGCCC,-0.0307
CAGTGCGC,-0.0119
GAAGGTGA,0.0356
GCAAATCA,0.0221
ACACCTGA,-0.15
CAATCTCC,-0.0583
CACAGCTA,-0.0289
ACTACAGC,-0.0909
CCACGCGG,0.181
AGAGCCAC,0.0411
TAGGAGCA,-0.0731

# Some of these lines once more (study 5):
Sequence,E-score
ACTCCCCA,0.0164
TCAACAGA,0.0251
AGAGGAAA,0.221
AAGTCCGT,-0.209
AGTGAGCG,0.0347
GTTAAGGA,0.0673
AATACATG,-0.204
CTGCGCCC,-0.0307
CAGTGCGC,-0.0119
GAAGGTGA,0.0356
GCAAATCA,0.0221
ACACCTGA,-0.15
CAATCTCC,-0.0583
